Measured values of several laboratories.
Protocols differ between the studies behind these lines. ± marks the error that the study gave.

C[C@H](O)[C@@H](NC(=O)[C@H]1CCCN1C(=O)[C@@H](CCCCN)NC(=O)[C@@H](CO)NC(=O)[C@@H](Cc1ccc(O)cc1)NC(=O)[C@@H](CC(N)=O)NC(=O)CCOCCOCCOCCNC(=O)CN1CCN(CC(=O)O)CCN(CC(=O)O)CCN(CC(=O)O)CC1)C(=O)N[C@H](CC(=O)O)C(=O)N[C@H](CCCNC(=N)N)C(=O)N[C@H](CCC(N)=O)C(=O)N[C@H](Cc1ccc(O)cc1)C(=O)N[C@H](Cc1c[nH]cn1)C(=O)N[C@H](Cc1ccccc1)C(N)=O [gallium-68 labelled]  tissue uptake (BALB/c nude mice U-87 MG tumour, brain; intravenous, 1.85 MBq, 2 h, radiolabelled): 0.02 ± 0.01 %ID/g
CC[C@H](C)[C@H](NC(=O)[C@H](CCCNC(=N)N)NC(=O)[C@H](CCCCN)NC(=O)[C@H](Cc1ccc(O)cc1)NC(=O)[C@H](CC(=O)O)NC(=O)[C@H](C)NC(=O)CNC(=O)CCOCCOCCOCCNC(=O)CN1CCN(CC(=O)O)CCN(CC(=O)O)CCN(CC(=O)O)CC1)C(=O)N[C@H](C(=O)N[C@@H](CC(C)C)C(=O)N[C@@H](CCCCN)C(=O)N[C@H](C(=O)N[C@@H](CC(N)=O)C(N)=O)C(C)C)[C@@H](C)O [copper-64 labelled]  tissue uptake (ex vivo gamma counting; C57BL/6J male mice, B16-F10 tumour, stomach; intravenous, 1.85 MBq, 5 min): 1.8 ± 0.127 %ID/g
CC[C@H](C)[C@H](NC(=O)[C@H](CCCCN)NC(=O)CNC(=O)[C@H](CC(C)C)NC(=O)[C@H](Cc1ccccc1)NC(=O)[C@H](CCCCN)NC(=O)[C@H](CO)NC(=O)[C@H](Cc1ccccc1)NC(=O)[C@H](Cc1c[nH]c2ccccc12)NC(=O)[C@H](CCC(N)=O)NC(=O)[C@@H](NC(=O)[C@H](Cc1ccccc1)NC(=O)CCCCCNC(=O)CN1CCN(CC(=O)O)CCN(CC(=O)O)CCN(CC(=O)O)CC1)C(C)C)C(=O)N[C@@H](CCC(=O)O)C(=O)N1CCC[C@H]1C(=O)N[C@H](CC(=O)O)C(=O)N[C@H](C(=O)N[C@@H](CO)C(=O)N[C@@H](CCC(N)=O)C(=O)N[C@H](C(=O)N[C@@H](CCC(N)=O)C(=O)N[C@@H](CC(=O)O)C(=O)N1CCC[C@H]1C(=O)N[C@@H](CC(N)=O)C(=O)N[C@@H](CC(=O)O)C(=O)N[C@@H](CCC(N)=O)C(=O)N[C@@H](Cc1ccc(O)cc1)C(=O)N[C@@H](CCC(=O)O)C(=O)N1CCC[C@H]1C(=O)N[C@@H](Cc1ccccc1)C(=O)O)C(C)C)C(C)C [copper-64 labelled]  tissue uptake (female mice, EMT6 tumour-bearing, tumor; 2 h, uncleavable control tracer, vehicle-treated): 1.55 ± 0.1 %ID/g
CSCC[C@H](NC(=O)CNC(=O)[C@H](CCCCN)NC(=O)[C@H](CC(C)C)NC(=O)[C@@H]1CCCN1C(=O)[C@H](CO)NC(=O)[C@H](Cc1c[nH]cn1)NC(=O)[C@H](Cc1c[nH]c2ccccc12)NC(=O)[C@H](CCCNC(=N)N)NC(=O)[C@H](CC(C)C)NC(=O)[C@H](CCCNC(=N)N)NC(=O)[C@H](Cc1c[nH]c2ccccc12)NC(=O)[C@H](CS)NC(=O)CCCCCNC(=O)CN1CCN(CC(=O)O)CCN(CC(=O)O)CCN(CC(=O)O)CC1)C(=O)O [copper-64 labelled]  tissue uptake (C57BL/6J mice, B16-F10 tumour, blood; intravenous, 1.85 MBq, 0.5 h): 3.15 %ID/g
CC(C)C[C@@H](NC(=O)[C@@H](CCCNC(=N)N)NC(=O)[C@@H](Cc1c[nH]cn1)NC(=O)[C@@H](Cc1c[nH]c2ccccc12)NC(=O)[C@@H](Cc1c[nH]cn1)NC(=O)[C@@H](Cc1ccccc1)NC(=O)[C@H](NC(=O)[C@@H](Cc1ccc(O)cc1)NC(=O)CNC(=O)CNC(=O)CCOCCOCCOCCNC(=O)CN1CCN(CC(=O)O)CCN(CC(=O)O)CC1)[C@H](C)O)C(=O)N[C@H](CC(N)=O)C(=O)N1CCC[C@@H]1C(=O)O [gallium-68 labelled]  tissue uptake (gamma counting; C57BL/6 mice, male, spleen; intravenous, 1.85 MBq, 30 min): 1.97 ± 0.41 %ID/g
CCCC[C@H]1C(=O)N(C)[C@@H](CCCC)C(=O)N[C@@H](CCCNC(=O)CN2CCN(CC(=O)O)CCN(CC(=O)O)CCN(CC(=O)O)CC2)C(=O)N[C@H](C(=O)NCC(N)=O)CSCC(=O)N[C@@H](Cc2ccc(O)cc2)C(=O)N(C)[C@@H](C)C(=O)N[C@@H](CC(N)=O)C(=O)N2CCC[C@H]2C(=O)N[C@@H](Cc2c[nH]cn2)C(=O)N[C@@H](CC(C)C)C(=O)N(C)CC(=O)N[C@@H](Cc2c[nH]c3ccccc23)C(=O)N[C@@H](CO)C(=O)N[C@@H](Cc2c[nH]c3ccccc23)C(=O)N1C [gallium-68 labelled]  tissue uptake (NOD/SCID mice with CHO-hPD-L1 xenograft, intestine; 120 min post injection): 2.55 ± 0.83 %ID/g
CC[C@H](C)[C@H](NC(=O)[C@@H](Cc1c[nH]c2ccccc12)NC(=O)[C@@H]1CCCN1C(=O)[C@H](CCCCN)NC(=O)[C@H](CCCCN)NC(=O)CCNC(=O)CCNC(=O)CN1CCN(CC(=O)O)CCN(CC(=O)O)CCN(CC(=O)O)CC1)C(=O)N[C@@H](C[Si](C)(C)C)C(=O)O [gallium-68 labelled]  tissue uptake (ex vivo biodistribution; nude mice, HT-29 xenograft, lungs; 90 min, together with: levocabastine 0.5 µmol): 0.63 ± 0.13 %ID/g
CC[C@H](C)[C@H](NC(=O)[C@H](CCCNC(=N)N)NC(=O)[C@H](CCCCN)NC(=O)[C@H](Cc1ccc(O)cc1)NC(=O)[C@H](CC(=O)O)NC(=O)[C@H](C)NC(=O)CNC(=O)CCOCCOCCOCCNC(=O)CN1CCN(CC(=O)O)CCN(CC(=O)O)CCN(CC(=O)O)CC1)C(=O)N[C@H](C(=O)N[C@H](C(=O)N[C@@H](CCCCN)C(=O)N[C@H](C(=O)N[C@@H](CC(N)=O)C(N)=O)C(C)C)C(C)C)[C@@H](C)O [copper-64 labelled]  tissue uptake (ex vivo gamma counting; C57BL/6J male mice, B16-F10 tumour, brain; intravenous, 1.85 MBq, 100 min): 0.079 ± 0.005 %ID/g

A few entries again:
CC[C@H](C)[C@H](NC(=O)[C@@H](Cc1c[nH]c2ccccc12)NC(=O)[C@@H]1CCCN1C(=O)[C@H](CCCCN)NC(=O)[C@H](CCCCN)NC(=O)CCNC(=O)CCNC(=O)CN1CCN(CC(=O)O)CCN(CC(=O)O)CCN(CC(=O)O)CC1)C(=O)N[C@@H](C[Si](C)(C)C)C(=O)O [gallium-68 labelled]  tissue uptake (ex vivo biodistribution; nude mice, HT-29 xenograft, lungs; 90 min, together with: levocabastine 0.5 µmol): 0.63 ± 0.13 %ID/g
